Experimental data pooled from the literature.
Parts stem from different laboratories: compare values within a part only.

Sample 1 — method: RNA Bind-n-Seq; form: RNA; matrix: in vitro; concentration: 200 nM; notes: whole 134-nt RNA, ends assumed; together with: 150 mM KCl; relative to: input library; reading: higher = stronger binding
Target: Fragile X messenger ribonucleoprotein 1, C-terminal low-complexity region (Fmr1, Mus musculus, UniProt P35922)
All sequences stand within: GGGAGUUCUACAGUCCGACGAUC … UGGAAUUCUCGGGUGUCAAGG
| Oligonucleotide | log2 enrichment |
| --- | --- |
| CAAGUCCUGUGCUACACAUCGUAUGUACCGAAUCGGGUGGGAAAGGGUUUUUGGGAAAGUAUUAUGUUACGCCGUUCGGAUCUGCACUUC | 0.748 |
| UGGGAGGAGGAUUUUGUUUAUUUUUUUAGCUCAUUUCCAGGGGUGGGAAUUUUUUUUUAAUAUGUGUCAUGAAUAAAGUUGUUUUUGAAA | -0.362 |
| CACAGACAACCCGCACCCACACAGACACAGAGGGAAGGGGUUGGGAUGGGGACAGGGUGCACAGCAGGGCGGGGUAGGACCCCAGCCCCU | 1.45 |
| GCAGGAAGUAAAAACAAAUGGAAAUGCUUCGGAUAGGGGCAGGGGUGGGGGUUGCUAAGGAAAGGGUGGGAUGGGAGUGGGUAAAGAGUU | 0.674 |
| UGUGCUACACAUCGUAUGUACCGAAUCGGGUUUUUUUGGGGUUUUUUUGGGGUUUUUUUGGGAAAGUAUUAUGUUACGCCGUUCGGAUCU | 0.107 |
| UUAAGAAUUUGCUUAAAGAAGUGCGGAUCUAUGCACAGAAAUUUAUUGAUCGAGGAAAGGAUUUUAACUUGGAGUUGGCAAUUAAAACAC | 0.123 |

Sample 2 — method: protein binding microarray; form: double-stranded DNA, one strand shown; matrix: in vitro; concentration: not given; relative to: not given; reading: higher = stronger binding
Target: Histone acetyltransferase KAT6A, winged helix 2, GST fusion (KAT6A, Homo sapiens, UniProt Q92794, residues 85-181)
Notes: 8-mer, flanks averaged, mean of 2 arrays, mostly near background
Residues (chain): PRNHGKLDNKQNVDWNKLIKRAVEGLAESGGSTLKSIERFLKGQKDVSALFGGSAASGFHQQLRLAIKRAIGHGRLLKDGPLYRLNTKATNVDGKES
| Oligonucleotide | E-score |
| --- | --- |
| TAGACAAA | -0.0813 |
| CTCAAAGC | 0.0777 |
| AAATCCAT | 0.0672 |
| CGCTACGA | 0.0391 |
| AACGTAGC | -0.153 |
| ATACGCGA | -0.0236 |

Sample 3 — method: universal PBM; form: double-stranded DNA, one strand shown; matrix: in vitro; concentration: 600 nM; reading: higher = stronger binding
Target: Sal-like protein 4, full length isoform A (SALL4, Homo sapiens, UniProt Q9UJQ4, residues 1-1053)
UniProt Q9UJQ4, sequence (whole entry, looked up): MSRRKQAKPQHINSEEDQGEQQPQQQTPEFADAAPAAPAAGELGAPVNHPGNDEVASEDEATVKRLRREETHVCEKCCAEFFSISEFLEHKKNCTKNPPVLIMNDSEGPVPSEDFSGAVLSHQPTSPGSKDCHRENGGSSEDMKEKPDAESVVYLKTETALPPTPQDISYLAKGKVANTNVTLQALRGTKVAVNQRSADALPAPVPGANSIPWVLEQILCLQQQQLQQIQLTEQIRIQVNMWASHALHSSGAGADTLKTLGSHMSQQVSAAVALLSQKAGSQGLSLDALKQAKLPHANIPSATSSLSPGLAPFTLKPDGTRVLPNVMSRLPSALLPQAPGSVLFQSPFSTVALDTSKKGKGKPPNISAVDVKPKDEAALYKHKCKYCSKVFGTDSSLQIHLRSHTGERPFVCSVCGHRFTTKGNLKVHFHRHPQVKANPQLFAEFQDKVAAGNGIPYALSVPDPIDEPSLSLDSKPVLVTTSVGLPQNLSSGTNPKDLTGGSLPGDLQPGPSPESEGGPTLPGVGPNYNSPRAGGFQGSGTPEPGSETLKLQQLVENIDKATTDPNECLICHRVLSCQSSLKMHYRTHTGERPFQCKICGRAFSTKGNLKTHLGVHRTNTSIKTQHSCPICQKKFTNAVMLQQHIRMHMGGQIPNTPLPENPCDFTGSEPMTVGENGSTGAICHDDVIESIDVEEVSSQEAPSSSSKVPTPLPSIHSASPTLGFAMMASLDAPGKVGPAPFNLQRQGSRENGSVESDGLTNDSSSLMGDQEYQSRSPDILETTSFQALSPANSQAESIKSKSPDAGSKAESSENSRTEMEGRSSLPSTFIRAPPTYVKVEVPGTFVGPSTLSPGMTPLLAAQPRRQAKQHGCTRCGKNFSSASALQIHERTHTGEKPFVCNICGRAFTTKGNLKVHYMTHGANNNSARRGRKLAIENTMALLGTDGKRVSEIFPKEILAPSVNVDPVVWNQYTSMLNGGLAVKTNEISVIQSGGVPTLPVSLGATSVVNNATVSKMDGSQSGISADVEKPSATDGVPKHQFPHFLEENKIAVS
Notes: 8-mer, flanks averaged, mean of replicates
| Oligonucleotide | E-score |
| --- | --- |
| CCATTAGG | -0.0521 |
| GCTATGAC | 0.15 |
| ATACACTG | 0.169 |
| AGTCGATC | -0.209 |
| ATTCATGG | 0.162 |
| CGTAAACG | -0.0765 |
| CTCCACAA | -0.0202 |

Single results of other studies
| Substance | target | assay | test system | setting | scale | endpoint | value |
| --- | --- | --- | --- | --- | --- | --- | --- |
| PhoQ, residues 284 288 289 292 302 303 NLMGRA | PhoP, residues 12 14 15 18 19 MHTVL (Escherichia coli, UniProt P23836) | Sort-seq, refers to: YFP reporter | E. coli | PhoQ-PhoP variant library, together with: 10 µM Mg2+ | relative to: high Mg2+ state, higher = stronger signaling | fold induction | 13 |

Excerpt of the above (sample 1):
| Oligonucleotide | log2 enrichment |
| --- | --- |
| CACAGACAACCCGCACCCACACAGACACAGAGGGAAGGGGUUGGGAUGGGGACAGGGUGCACAGCAGGGCGGGGUAGGACCCCAGCCCCU | 1.45 |
| UUAAGAAUUUGCUUAAAGAAGUGCGGAUCUAUGCACAGAAAUUUAUUGAUCGAGGAAAGGAUUUUAACUUGGAGUUGGCAAUUAAAACAC | 0.123 |
| CAAGUCCUGUGCUACACAUCGUAUGUACCGAAUCGGGUGGGAAAGGGUUUUUGGGAAAGUAUUAUGUUACGCCGUUCGGAUCUGCACUUC | 0.748 |
